# Results gathered from unrelated publications.
# Each line is one published result; not all experiments were run side by side. ± marks the error that the study gave.
# Cell line: HeLa
SMILES,test,system,conditions,scale,endpoint,value
CCc1ccc(C(=O)N[C@@H](CO)C(=O)N[C@H](C(=O)N2CCC[C@H]2C(=O)N[C@@H](CC(N)=O)C(=O)NCC(=O)N[C@@H](CC(C)C)C(=O)O)[C@@H](C)OP(=O)(O)O)cc1,,,"30 µM, 24 h",,viability,64%
O=c1c(Br)c2oc3c(CN(Cc4ccccn4)Cc4cnccn4)c(O)ccc3nc-2c2ccccc12,MTT,,"5 µM, 24 h",relative to: DMSO,viability,88 ± 5%
CC(C)C[C@H](NC(=O)OCc1ccccc1)C(=O)N[C@@H](CC1CCNC1=O)C(O)S(=O)(=O)O (stereo partly shown),,,6 days,,CC50,> 10 µM
O=C(CN1CCCC1)NNc1ccccc1Sc1cc(Cl)ccc1[N+](=O)[O-],,,,,CC50,60 µM
N=C(N)NCCC[C@@H]1NC(=O)[C@H](Cc2csc3ccccc23)NC(=O)[C@@H](Cc2ccccc2)NC(=O)[C@H](Cc2ccccc2)NC(=O)[C@H](CCC(=O)NCCOCCOCC(=O)N[C@@H](CCCCNC(=O)c2ccc3c(c2)C(=O)OC32c3ccc4cc(O)ccc4c3Oc3c2ccc2cc(O)ccc32)C(N)=O)NC(=O)[C@@H](CCCNC(=N)N)NC(=O)[C@H](CCCNC(=N)N)NC(=O)[C@@H](CCCNC(=N)N)NC1=O,,,"2.0 µM, 1% FBS",relative to: CPP12,endosomal escape efficiency,138 ± 6%
CCCCNC(P(=O)(O)O)P(=O)(O)O,MTT,serum-free medium,"100 µM, 24 h",,cytotoxicity,8 ± 3%
CC[C@H](C)[C@@H]1NC(=O)[C@H](C)NC(=O)[C@H](C)NC(=O)[C@H]([C@@H](C)O)NC(=O)[C@H](Cc2ccccc2)NC(=O)[C@@H]2CSSC[C@@H]3NC(=O)[C@H](C(C)C)NC(=O)[C@H](CCCCN)NC(=O)[C@H](CO)NC(=O)[C@H](CCCCN)NC(=O)[C@@H]4CSSC[C@H](NC(=O)[C@H](CO)NC(=O)[C@H](CCC(=O)O)NC(=O)CNC(=O)[C@H](CSSC[C@H](NC(=O)CNC1=O)C(=O)N[C@@H](CO)C(=O)N4)NC(=O)[C@@H]1CCCN1C(=O)[C@H](Cc1ccccc1)NC(=O)CNC(=O)[C@H](CC(N)=O)NC(=O)[C@H](C)NC(=O)[C@H](Cc1ccc(O)cc1)NC3=O)C(=O)N[C@@H](C(C)C)C(=O)N[C@@H](Cc1ccc(O)cc1)C(=O)N[C@@H](CC(C)C)C(=O)N1CCC[C@H]1C(=O)N2,resazurin,,24 h,,CC50,1.02 ± 0.03 µM
COc1cccc(NCC(C)(O)Cn2c3ccc(Br)cc3c3cc(Br)ccc32)c1 (stereo not shown),CellTiter-Glo,,48 h,,GI50,10.9 µM
CC[C@H](C)[C@@H]1NC(=O)[C@H](C)NC(=O)[C@H](C)NC(=O)[C@H]([C@@H](C)O)NC(=O)[C@H](Cc2ccccc2)NC(=O)[C@@H]2CSSC[C@@H]3NC(=O)[C@H](C(C)C)NC(=O)[C@H](CCCCN)NC(=O)[C@H](CO)NC(=O)[C@H](CCCCN)NC(=O)[C@@H]4CSSC[C@H](NC(=O)[C@H](C)NC(=O)[C@H](CCC(=O)O)NC(=O)CNC(=O)[C@H](CSSC[C@H](NC(=O)CNC1=O)C(=O)N[C@@H](CO)C(=O)N4)NC(=O)[C@@H]1CCCN1C(=O)[C@H](Cc1ccccc1)NC(=O)CNC(=O)[C@H](CC(N)=O)NC(=O)[C@H](CCCCN)NC(=O)[C@H](Cc1ccc(O)cc1)NC3=O)C(=O)N[C@@H](C(C)C)C(=O)N[C@@H](Cc1ccc(O)cc1)C(=O)N[C@@H](CC(C)C)C(=O)N1CCC[C@H]1C(=O)N2,resazurin,,24 h,,CC50,4.15 ± 2.88 µM
C[C@@H](NC(=O)[C@H](Cc1ccccc1)NC(=O)[C@@H](CCCNC(=N)N)NC(=O)[C@H](CCCN)NC(=O)[C@@H]1CNC(=O)c2cc3cc(c2)C(=O)N[C@H](Cc2ccc4ccccc4c2)C(=O)N[C@@H](CO)C(=O)N[C@@H](CC(N)=O)C(=O)N[C@H](Cc2ccc4ccccc4c2)C(=O)N[C@@H](c2ccccc2)C(=O)N[C@@H](CCCCNC3=O)C(=O)N[C@H](Cc2ccccc2)C(=O)N[C@@H](CCC(N)=O)C(=O)N[C@H](CCCNC(=N)N)C(=O)N[C@@H](CCCNC(=N)N)C(=O)N1)C(=O)NCCOCCOCC(=O)NCCOCCOCC(=O)N[C@@H](CCCCNC(=O)c1ccc2c(c1)C(=O)OC21c2ccc(O)cc2Oc2cc(O)ccc21)C(N)=O,flow cytometry,,"5 µM, 2 h, 1% FBS",relative to: CPP12,cellular uptake,226%
CC[C@H](C)[C@@H]1NC(=O)[C@H](C)NC(=O)[C@H](C)NC(=O)[C@H]([C@@H](C)O)NC(=O)[C@H](Cc2ccccc2)NC(=O)[C@@H]2CSSC[C@@H]3NC(=O)[C@H](C(C)C)NC(=O)[C@H](CCCCN)NC(=O)[C@H](CO)NC(=O)[C@H](CCCCN)NC(=O)[C@@H]4CSSC[C@H](NC(=O)[C@H](CO)NC(=O)[C@H](CCC(=O)O)NC(=O)CNC(=O)[C@H](CSSC[C@H](NC(=O)CNC1=O)C(=O)N[C@@H](CO)C(=O)N4)NC(=O)[C@@H]1CCCN1C(=O)[C@H](Cc1ccccc1)NC(=O)CNC(=O)[C@H](CC(N)=O)NC(=O)[C@H](CCCCN)NC(=O)[C@H](Cc1ccc(O)cc1)NC3=O)C(=O)N[C@@H](C(C)C)C(=O)N[C@@H](Cc1ccc(O)cc1)C(=O)N[C@@H]([C@@H](C)CC)C(=O)N1CCC[C@H]1C(=O)N2,resazurin,,24 h,,CC50,0.92 ± 0.07 µM
O=C1/C(=N\NC(=S)NN=Cc2cccs2)c2ccccc2N1Cc1ccccc1,cell morphology,,,,minimum cytotoxic concentration,20 µM
CC[C@H](C)[C@@H]1NC(=O)[C@H](C)NC(=O)[C@H](C)NC(=O)[C@H]([C@@H](C)O)NC(=O)[C@H](Cc2ccccc2)NC(=O)[C@@H]2CSSC[C@@H]3NC(=O)[C@H](C(C)C)NC(=O)[C@H](CCCCN)NC(=O)[C@H](C)NC(=O)[C@H](CCCCN)NC(=O)[C@@H]4CSSC[C@H](NC(=O)[C@H](CO)NC(=O)[C@H](CCC(=O)O)NC(=O)CNC(=O)[C@H](CSSC[C@H](NC(=O)CNC1=O)C(=O)N[C@@H](CO)C(=O)N4)NC(=O)[C@@H]1CCCN1C(=O)[C@H](Cc1ccccc1)NC(=O)CNC(=O)[C@H](CC(N)=O)NC(=O)[C@H](CCCCN)NC(=O)[C@H](Cc1ccc(O)cc1)NC3=O)C(=O)N[C@@H](C(C)C)C(=O)N[C@@H](Cc1ccc(O)cc1)C(=O)N[C@@H](CC(C)C)C(=O)N1CCC[C@H]1C(=O)N2,resazurin,,24 h,,CC50,0.8 ± 0.03 µM
CC(=O)Nc1ccc(-c2csc(NCc3ccccc3)n2)cc1,resazurin,,concentration not given,,cytotoxicity,not toxic
CC[C@H](C)[C@@H]1NC(=O)[C@H](C)NC(=O)[C@H](C)NC(=O)[C@H]([C@@H](C)O)NC(=O)[C@H](Cc2ccccc2)NC(=O)[C@@H]2CSSC[C@@H]3NC(=O)[C@H](C(C)C)NC(=O)[C@H](CCCCN)NC(=O)[C@H](CO)NC(=O)[C@H](CCCCN)NC(=O)[C@@H]4CSSC[C@H](NC(=O)[C@H](CO)NC(=O)[C@H](CCC(=O)O)NC(=O)CNC(=O)[C@H](CSSC[C@H](NC(=O)CNC1=O)C(=O)N[C@@H](CO)C(=O)N4)NC(=O)[C@@H]1CCCN1C(=O)[C@H](Cc1ccccc1)NC(=O)CNC(=O)[C@H](CC(N)=O)NC(=O)[C@H](CCCCN)NC(=O)[C@H](Cc1ccc(O)cc1)NC3=O)C(=O)N[C@@H](C)C(=O)N[C@@H](Cc1ccc(O)cc1)C(=O)N[C@@H](CC(C)C)C(=O)N1CCC[C@H]1C(=O)N2,resazurin,,24 h,,CC50,6.01 ± 1.21 µM
CN(C)c1ccc2c(c1)Oc1cc(N(C)C)ccc1C21OC(=O)c2cc(C(=O)NCCCC[C@H](NC(=O)[C@@H](N)CSSC[C@H](N)C(=O)N[C@@H](CCCCNC(=O)c3ccc4c(c3)C(=O)OC43c4ccc(N(C)C)cc4Oc4cc(N(C)C)ccc43)C(=O)N[C@@H](CCCNC(=N)N)C(=O)N[C@@H](CCCNC(=N)N)C(=O)N[C@@H](CCCNC(=N)N)C(=O)N[C@@H](CCCNC(=N)N)C(=O)N[C@@H](CCCNC(=N)N)C(=O)N[C@@H](CCCNC(=N)N)C(=O)N[C@@H](CCCNC(=N)N)C(=O)N[C@@H](CCCNC(=N)N)C(=O)NCC(N)=O)C(=O)N[C@@H](CCCNC(=N)N)C(=O)N[C@@H](CCCNC(=N)N)C(=O)N[C@@H](CCCNC(=N)N)C(=O)N[C@@H](CCCNC(=N)N)C(=O)N[C@@H](CCCNC(=N)N)C(=O)N[C@@H](CCCNC(=N)N)C(=O)N[C@@H](CCCNC(=N)N)C(=O)N[C@@H](CCCNC(=N)N)C(=O)NCC(N)=O)ccc21,,,"10 µM, 1 h",,SYTOX Blue-positive cells,47%

# Repeated from above:
SMILES,test,system,conditions,scale,endpoint,value
CC[C@H](C)[C@@H]1NC(=O)[C@H](C)NC(=O)[C@H](C)NC(=O)[C@H]([C@@H](C)O)NC(=O)[C@H](Cc2ccccc2)NC(=O)[C@@H]2CSSC[C@@H]3NC(=O)[C@H](C(C)C)NC(=O)[C@H](CCCCN)NC(=O)[C@H](C)NC(=O)[C@H](CCCCN)NC(=O)[C@@H]4CSSC[C@H](NC(=O)[C@H](CO)NC(=O)[C@H](CCC(=O)O)NC(=O)CNC(=O)[C@H](CSSC[C@H](NC(=O)CNC1=O)C(=O)N[C@@H](CO)C(=O)N4)NC(=O)[C@@H]1CCCN1C(=O)[C@H](Cc1ccccc1)NC(=O)CNC(=O)[C@H](CC(N)=O)NC(=O)[C@H](CCCCN)NC(=O)[C@H](Cc1ccc(O)cc1)NC3=O)C(=O)N[C@@H](C(C)C)C(=O)N[C@@H](Cc1ccc(O)cc1)C(=O)N[C@@H](CC(C)C)C(=O)N1CCC[C@H]1C(=O)N2,resazurin,,24 h,,CC50,0.8 ± 0.03 µM
